# Measured values from different studies.
# Amino acid sequences for entries named in this document (tags omitted).
# UniProt P41145, whole entry: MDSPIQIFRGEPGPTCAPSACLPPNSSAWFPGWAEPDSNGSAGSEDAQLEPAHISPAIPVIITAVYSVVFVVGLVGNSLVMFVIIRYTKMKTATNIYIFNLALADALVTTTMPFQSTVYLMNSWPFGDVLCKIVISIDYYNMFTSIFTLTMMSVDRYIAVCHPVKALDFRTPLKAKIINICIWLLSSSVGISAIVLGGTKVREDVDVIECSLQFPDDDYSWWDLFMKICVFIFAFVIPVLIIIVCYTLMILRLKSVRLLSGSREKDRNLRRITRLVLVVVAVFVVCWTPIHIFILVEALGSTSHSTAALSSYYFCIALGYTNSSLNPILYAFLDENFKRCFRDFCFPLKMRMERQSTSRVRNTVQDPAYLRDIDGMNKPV
# Lines come from different studies, so protocols differ. Values joined by “and” are separate records of one study, mostly repeats; a detail may differ. ± marks the error that the study gave.
SMILES,tested on,assay,test system,conditions,endpoint,value
NCCNCCSc1ccccc1,,,n-octanol/phosphate buffer,"10 µg/mL, pH 7.4",partition coefficient,0.23 ± 0.04
CC(C)C[C@@H](NC(=O)[C@H](NC(=O)[C@H]1CCCN1)[C@H](C)O)C(=O)N[C@H](Cc1c[nH]cn1)C(=O)N[C@@H](C(=O)N[C@H](Cc1c[nH]cn1)C(=O)N[C@H](CC(N)=O)C(=O)N[C@H](CCCNC(=N)N)C(=O)N[C@H](CCCNC(=N)N)C(=O)N[C@H](CCCNC(=N)N)C(=O)N[C@H](CCCNC(=N)N)C(=O)N[C@H](CCCNC(=N)N)C(N)=O)[C@H](C)O,,phase I single ascending dose,healthy male subjects,"12 mg, total events",incidence of adverse events,16.7%
COC(C)(C)Cn1cc(-c2ccc3cc(OC4CC4)ccc3c2)c2c(N)ncnc21,HepG2,cytotoxicity,,,CC50,43.9 µM
CCOc1ccc2cc(-c3nn(CC4CCNCC4)c4ncnc(N)c34)ccc2n1,CRL-8155,"cell growth, Alamar Blue",,"48 or 72 h, highest tested 30 µM",GI50,> 30 µM
O=c1c(OCCCO)c(SSc2cnn(-c3ccccc3)c(=O)c2OCCCO)cnn1-c1ccccc1,HeLa,,,,CC50,~100 µM
CS(=O)(=O)Cc1onc(-c2cccc(Cl)c2)c1-c1ccnc(N[C@@H]2CCN(Cc3nccs3)C2)n1,HepG2,,,"20 µM, 48 h",viability,93%
"[11CH3]Nc1ccc(C(=O)C2CCN(C3Cc4ccccc4CC3O)CC2)cc1 (single isomer, unassigned)",,,"Sprague-Dawley rat, cerebellum",30 min,uptake,0.157 %ID/g
CCOc1ccc2cc(-c3nn(CC4CCNCC4)c4ncnc(N)c34)ccc2c1,CRL-8155,"cell growth, Alamar Blue",,"48 or 72 h, highest tested 30 µM",GI50,> 30 µM
CCOc1c(SSc2cnn(-c3ccccc3)c(=O)c2OCC)cnn(-c2ccccc2)c1=O,HeLa,,,,CC50,~100 µM
COC(C)(C)Cn1nc(-c2ccc3cc(OC4CC4)ccc3c2)c2c(N)ncnc21,HepG2,cytotoxicity,,,CC50,> 80 µM
CSC[C@H](NC(=O)Cc1ccc(N)cc1)C(=O)N[C@@H](Cc1ccccc1)[C@H](O)C(=O)N1CSC(C)(C)[C@H]1C(=O)N[C@H]1c2ccccc2C[C@H]1O,human foreskin fibroblasts,MTT,,"up to 25 µM, 2 days",cytotoxicity,not toxic
COc1ccc(CN[C@@H]2CO[C@H](C(c3ccccc3)c3ccccc3)C[C@H]2O)cc1,"Kappa-type opioid receptor (OPRK1, Homo sapiens, UniProt P41145)",radioligand binding,,"10 µM, added: [3H]bremazocine",inhibition,54.3%
COc1cccc(-c2cc(Nc3c(Nc4ccc(C(F)(F)F)cc4)c(=O)c3=O)ccc2OC)c1,Caco-2,,,,efflux ratio,0.152 ± 0.03
C[C@H](CS)C(=O)N[C@H](Cc1c[nH]c2ccccc12)C(=O)O,Klebsiella pneumoniae,,VIM-1 producing,"25 µM, added: meropenem",MIC of meropenem,4 µg/mL
Cc1cccc2c1[nH]c1c(-c3ccc(Cl)c(Cl)c3)nc(C(=O)NCCNCCO)cc12,HepG2,cytotoxicity,,,CC50,9.8 µM and 9.78 µM
CC(=O)OC1CC[C@H]2C3=C(CC[C@]12C)[C@]1(C)c2c(coc2C3=O)[C@@H](OC(C)=O)[C@@H]2O[C@@H]21 (stereo partly drawn),MDA-MB-231,"cytotoxicity, SRB",,72 h,EC50,0.971 µM
O=C(NC1CCN(c2ncnc3[nH]cnc23)CC1)c1cccc(S(=O)(=O)Nc2ccc(Cl)cc2)c1,A549-ACE2,,,200 µM,viability,73.6%
O=C(NCCNCCO)c1cc2c([nH]c3ccccc32)c(-c2ccc(Cl)c(Cl)c2)n1,HepG2,cytotoxicity,,,CC50,7.27 µM

# Excerpt of the above:
SMILES,tested on,assay,test system,conditions,endpoint,value
"[11CH3]Nc1ccc(C(=O)C2CCN(C3Cc4ccccc4CC3O)CC2)cc1 (single isomer, unassigned)",,,"Sprague-Dawley rat, cerebellum",30 min,uptake,0.157 %ID/g
